Measured values from different studies.
Each numbered part is a random draw from the data of one study; scales do not carry over between parts. Substitutions count along the parent as printed.

Set 1
Target: Ras GTPase-activating protein-binding protein 1, full length (G3BP1, Homo sapiens, UniProt Q13283)
UniProt Q13283, sequence (whole entry, looked up): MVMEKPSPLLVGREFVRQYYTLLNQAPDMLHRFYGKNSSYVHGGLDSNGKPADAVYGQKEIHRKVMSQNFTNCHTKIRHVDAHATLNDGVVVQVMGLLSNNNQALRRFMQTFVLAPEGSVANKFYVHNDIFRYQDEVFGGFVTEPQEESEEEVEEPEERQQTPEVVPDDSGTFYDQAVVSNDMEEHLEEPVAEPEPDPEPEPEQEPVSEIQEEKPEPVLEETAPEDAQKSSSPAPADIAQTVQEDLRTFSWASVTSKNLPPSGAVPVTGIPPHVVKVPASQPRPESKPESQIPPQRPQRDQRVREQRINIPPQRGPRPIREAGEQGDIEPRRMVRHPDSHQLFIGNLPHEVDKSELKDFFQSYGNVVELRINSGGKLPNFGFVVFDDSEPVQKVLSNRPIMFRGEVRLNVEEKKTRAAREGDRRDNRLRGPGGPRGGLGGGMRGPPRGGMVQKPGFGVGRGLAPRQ
Technique: RNA Bind-n-Seq
Molecule type: RNA
Sample: in vitro
Tested at: 200 nM
Notes: whole 134-nt RNA, ends assumed
Together with: 150 mM LiCl
Reference: input library
Reading: higher = stronger binding
Quantity: log2 enrichment
Each molecule: 7-deaza-guanosine replaces G
Shared flanks, not repeated: GGGAGUUCUACAGUCCGACGAUC … UGGAAUUCUCGGGUGUCAAGG
UAACUUUAGAGGAGGAUCUGAUGGAUAUGGCAGUGGACGUGGAUUUGGGGAUGGCUAUAAUGGGUAUGCAGGAGGACCUGGAGGUGGCAA: 0.423
CUCAAGUCCUGUGCUACACAUCGUAUGUACCGAAUCGGCCGGGCCGGCCGGGGAAAGUAUUAUGUUACGCCGUUCGGAUCUGCACUUCCA: 0.597
UGCAGUGAUGGUCAUUGUCCUCCAGAGCAGUGAUGGAGGAAAUACCAGCCCAGGAAGCAGCAGGGUCACCAAGGGUCCAGUUUCAGUCUU: -0.399
UCCUGUGCUACACAUCGUAUGUACCGAAUCGGGGAAAAAGGGGAAAGGGGAAAAAGGGGAAAGUAUUAUGUUACGCCGUUCGGAUCUGCA: 0.193
ACCAUGCAGGUGGGCAUCUUUGGGAAGUGGGGCAAGGGGGGGAUAGGGAGGGGGGUAACACUUGGGGAACAGGUGGUCCCAGGUCGUUUC: 0.211
AGUCCUGUGCUACACAUCGUAUGUACCGAAUCGGCCCCGGGGCCCCGGGCCCCGGGGAAAGUAUUAUGUUACGCCGUUCGGAUCUGCACU: -2.06
UCAAGUCCUGUGCUACACAUCGUAUGUACCGAAUCGGGUUUGGGGUUUGGUUUGGAAAGUAUUAUGUUACGCCGUUCGGAUCUGCACUUC: -0.272
AAGUCCUGUGCUACACAUCGUAUGUACCGAAUCGGUUUUUUUGGUGGAAAAAAAGGAAAGUAUUAUGUUACGCCGUUCGGAUCUGCACUU: -1.29

Set 2
Target: CCND1, cyclin fold, Cln2 fusion (human)
Technique: yeast growth competition, sequencing
Sample: yeast
Notes: weak parent motif
Reference: not given
Reading: higher = stronger binding
Quantity: normalised enrichment score
Parent: MASTL docking peptide (human); PMIAKNLMCELDE
I3A: 0.562
E10R: 0.0874
E10D: 0.147
L11P: 0.00834
L7Q: 0.115
D12H: 0.162
L7G: -0.254
L11Y: 0.327

Set 3
Target: RNA binding protein fox-1 homolog 2, RRM domain, GST-SBP tag (RBFOX2, Homo sapiens, UniProt O43251-10, residues 100-194)
Technique: RNA Bind-n-Seq
Molecule type: RNA
Sample: in vitro
Tested at: 365 nM
Notes: natural RNA segment, single round, ends assumed
Reference: no-protein control
Reading: higher = stronger binding
Quantity: RBNS enrichment (R)
Shared flanks, not repeated: GGGAGUUCUACAGUCCGACGAUC … UGGAAUUCUCGGGUGCCAA
Residues (chain): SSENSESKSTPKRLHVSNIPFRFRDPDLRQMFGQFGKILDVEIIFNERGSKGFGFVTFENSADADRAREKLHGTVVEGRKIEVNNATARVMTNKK
CUAGGAUGCUGUCAGCCUGAGAGUGAAAGUGGGCACUCAUUUCUCCUGGUUUUUGAAGAGCCUGUUAAGUACACUUGGCUAUUUCCUCCUUGGAGUCCUGUUCUUGCUCA: 0.615
UCUGCAGGCAUCUCUGUCUGAGAGCAGUGGGGGCUGCCCUCUGUAGAGCUGUGAGAGCAGUGGGGGCUGCCCUCUGUAGAGCUGUGAGAGCAGUGGGGGGCUGCCCUCUG: 0.578
GGCUAAUCACUAGAUUAGAAAACACGCAAUAUGAUGCGGCCAACGGCAUGGACGACGAGGAGGACUUCAACAAUUCACCCGCGCUGGGGAACAACAGCCCGUGGAACAGU: 0.825
GGAGUAGGGCCUGUGGCUCAGCGCUAGGCCACGCACGCAGCAUCCCAGGCAUGUGGUGAGAAACUGCCUUAAUGUGUCUCCUCUGUUCUUGUCAACAGGAGGCUCAAGAU: 14.5
CAGCAAUUCACGCUGUCUCUUCUUAACCCUGAACAAGAGUGUCUAUGGAGCAGCCGGAAGUCUGUUCUCAAAGCAGAAGUGGAAUCCAGUGUGGCUCCCACAGGUCUUCA: 0.159
UUUCUGCUUGUUUUGAUUCAAAGUGCAGUUACUGAUGUUGUUUUGAUUAUGCAACUAAGUAGGCCUCCAGAGCCUCUCUAGUGGCAGAGCAGCUCACACUCCCUCCGCUG: 0.582
UUGGGGCAGGAGGGAUCGCAGUUCUUCAAAUUCAGGUCUUCGAAGAUAAUUUCCAGGUGUCUUCUCAAACGGAGUAAGCGCCUGGAUCCAAAUGGUAGACUACUUGACCC: 0.528
AGGCAUACAACCUAGAAAAUGUUAAUCACAUCACUGUUUCUUCUGUGGAAGCAAAGAGUUGUGGAGCGGUAGCCAUUUUAGUUACUGGGGUGGGAGGGAGGAACAAAGGA: 0.524

Other studies, line by line
PhoQ, residues 284 288 289 292 302 303 NLGVHL — fold induction (PhoP, residues 12 14 15 18 19 TPLRH (Escherichia coli, UniProt P23836); Sort-seq, item: YFP reporter; E. coli; PhoQ-PhoP variant library, together with: 10 µM Mg2+; reference: high Mg2+ state, higher = stronger signaling): 12.5
